Results pooled from the literature.
Each numbered part is a random draw from the data of one study; scales do not carry over between parts. Several values in a cell are separate wells, animals, samples, runs or records.

Sample 1
Target: PABPC1L2, full length, GST fusion (mouse, UniProt A0ABA7IW68)
Technique: RNAcompete
Form: RNA
Medium: in vitro
Concentration: 20 nM
Notes: 7-mer, probes averaged, single round
Baseline: mean of 7-mers
Reading: higher = stronger binding
Residues (chain): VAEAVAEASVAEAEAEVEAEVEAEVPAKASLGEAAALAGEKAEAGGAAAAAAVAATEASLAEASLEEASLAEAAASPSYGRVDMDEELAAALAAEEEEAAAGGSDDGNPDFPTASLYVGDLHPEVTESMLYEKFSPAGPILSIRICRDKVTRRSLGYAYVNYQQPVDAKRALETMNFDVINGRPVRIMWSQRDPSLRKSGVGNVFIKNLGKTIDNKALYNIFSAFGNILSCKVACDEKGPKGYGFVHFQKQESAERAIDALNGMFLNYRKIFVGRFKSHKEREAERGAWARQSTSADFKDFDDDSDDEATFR
Oligonucleotide	7-mer Z-score
CUACUGU	-0.197
UAAACCU	0.178
CGCUUUC	-0.382
UAUCGGG	0.137
UAUAGUA	-0.184
UGAGCUC	-0.374

Sample 2
Target: Interferon regulatory factor 5, full length, phosphomimetic (IRF5, Homo sapiens, UniProt Q13568-2, residues 1-514, S451D/S453D/S456D/S462D)
Technique: protein-binding microarray
Form: double-stranded DNA, one strand shown
Medium: in vitro
Concentration: 940 nM top
Notes: 60-bp whole probe
Added: salmon DNA 0.4 mg/ml
Baseline: random background probes
Reading: higher = stronger binding
Oligonucleotide	fitted relative affinity [z-score]
GCCTAGCACGACGAACTGAGTATCGAGACGTGCTAGGTCTTGATTCGCTTGACGCTGCTG	1.54
GCCTAGCACTTAGACTTCAGTTCCGATTAGTGCTAGGTCTTGATTCGCTTGACGCTGCTG	0.721
GCCTAGCACTTAGGTTTCGGTTTCGGTTAGTGCTAGGTCTTGATTCGCTTGACGCTGCTG	16.4
GCCTAGCACGACGGTTTCGACTTTCGAGACGTGCTAGTCTTGATTCGCTTGACGCTGCTG	6.76

Sample 3
Target: Sal-like protein 4, full length isoform A (SALL4, Homo sapiens, UniProt Q9UJQ4, residues 1-1053)
Chain of UniProt Q9UJQ4 (whole entry, looked up): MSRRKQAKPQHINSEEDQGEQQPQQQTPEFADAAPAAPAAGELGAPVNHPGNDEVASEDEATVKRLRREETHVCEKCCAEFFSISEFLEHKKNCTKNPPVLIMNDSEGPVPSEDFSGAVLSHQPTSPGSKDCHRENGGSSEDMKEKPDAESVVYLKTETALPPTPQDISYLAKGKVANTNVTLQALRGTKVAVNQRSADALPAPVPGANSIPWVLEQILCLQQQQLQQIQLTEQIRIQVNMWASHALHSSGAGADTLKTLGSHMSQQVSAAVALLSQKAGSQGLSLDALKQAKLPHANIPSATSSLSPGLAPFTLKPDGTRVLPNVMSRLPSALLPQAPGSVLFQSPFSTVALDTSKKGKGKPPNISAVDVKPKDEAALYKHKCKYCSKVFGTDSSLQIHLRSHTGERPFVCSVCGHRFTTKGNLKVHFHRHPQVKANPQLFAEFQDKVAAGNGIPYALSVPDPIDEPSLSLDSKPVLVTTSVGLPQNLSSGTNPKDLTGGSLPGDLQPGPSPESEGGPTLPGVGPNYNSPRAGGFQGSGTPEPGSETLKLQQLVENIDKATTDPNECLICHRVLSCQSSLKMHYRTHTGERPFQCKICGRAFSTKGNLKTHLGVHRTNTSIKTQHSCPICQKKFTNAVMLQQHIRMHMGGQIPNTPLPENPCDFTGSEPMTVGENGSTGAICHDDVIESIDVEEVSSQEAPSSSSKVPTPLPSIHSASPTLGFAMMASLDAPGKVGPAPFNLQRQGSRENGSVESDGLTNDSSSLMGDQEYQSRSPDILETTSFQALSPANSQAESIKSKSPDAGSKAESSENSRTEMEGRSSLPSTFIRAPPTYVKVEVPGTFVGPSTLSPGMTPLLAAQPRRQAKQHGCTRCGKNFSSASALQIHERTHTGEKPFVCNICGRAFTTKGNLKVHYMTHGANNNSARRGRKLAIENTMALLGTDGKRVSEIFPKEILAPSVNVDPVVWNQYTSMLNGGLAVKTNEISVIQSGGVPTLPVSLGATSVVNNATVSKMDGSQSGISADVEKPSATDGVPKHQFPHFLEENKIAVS
Technique: universal PBM
Form: double-stranded DNA, one strand shown
Medium: in vitro
Concentration: 600 nM
Notes: 8-mer, flanks averaged, mean of replicates
Reading: higher = stronger binding
Oligonucleotide	E-score
AAAATCTG	0.121
CCCAATAC	0.0861
GGATTACA	0.104
ACGTGGTG	-0.229

Other studies, line by line
Molecule	target	test	test system	setting	how to read	quantity	result
PhoQ, residues 284 288 289 292 302 303 ALASRC	PhoP, residues 12 14 15 18 19 LWHCS (Escherichia coli, UniProt P23836)	Sort-seq, measured: YFP reporter	E. coli	PhoQ-PhoP variant library, added: 10 µM Mg2+	baseline: high Mg2+ state, higher = stronger signaling	fold induction	11 and 9.97

A few entries again (sample 1):
Oligonucleotide	7-mer Z-score
UAAACCU	0.178
UAUCGGG	0.137
